Assay results collected from several papers.
Protocols differ between the studies behind these lines. ± gives the spread as reported. Values after ≈ are worked out from the molar mass of the structure shown.
UniProt P21729, sequence (whole entry, looked up): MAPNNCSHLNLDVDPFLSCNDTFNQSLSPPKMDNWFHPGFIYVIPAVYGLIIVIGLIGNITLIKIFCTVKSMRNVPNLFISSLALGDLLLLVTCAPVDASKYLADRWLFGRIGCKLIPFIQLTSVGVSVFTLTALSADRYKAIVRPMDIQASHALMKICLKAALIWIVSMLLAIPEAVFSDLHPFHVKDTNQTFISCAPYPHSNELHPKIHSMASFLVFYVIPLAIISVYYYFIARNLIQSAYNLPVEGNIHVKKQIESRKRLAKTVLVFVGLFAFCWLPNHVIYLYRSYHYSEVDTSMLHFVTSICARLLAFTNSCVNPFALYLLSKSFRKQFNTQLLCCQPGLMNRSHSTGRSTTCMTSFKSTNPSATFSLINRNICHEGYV

Under “hind paw volume”, `O=C1C[C@@H](c2ccc(O)cc2)Oc2cc(O)ccc21` is recorded as 1.84 ± 0.03 mL (Sprague-Dawley rat, Freund's adjuvant arthritis; oral, 10 mg/kg, 4 h, together with: aconitine 1 mg/kg).
For `N=C(N)NCCC[C@@H]1NC(=O)[C@H](CCCCNC(=O)CC[C@H](NC(=O)CCOCCOCCOCCOCCNC(=O)CN2CCN(CC(=O)O)CCN(CC(=O)O)CCN(CC(=O)O)CC2)C(=O)NCCCC[C@@H]2NC(=O)[C@@H](Cc3ccccc3)NC(=O)[C@H](CC(=O)O)NC(=O)CNC(=O)[C@H](CCCNC(=N)N)NC2=O)NC(=O)[C@@H](Cc2ccccc2)NC(=O)[C@H](CC(=O)O)NC(=O)CNC1=O` [indium-111 labelled], the tissue uptake was 0.11 ± 0.02 %ID/g (female athymic nude mice, brain; intravenous, 3 µCi, 0.5 h, U-87 MG glioma xenograft).
`N=C(N)Nc1ccc(-c2nc3ccc(-c4ccc5nc(-c6ccc(NC(=N)N)cc6)[nH]c5c4)cc3[nH]2)cc1` — result for “Serca1 exon 22 splicing”: “no effect” (FVB mouse, wild type; intraperitoneal, 40 mg/kg, 7 days).
For `CC/C=C\C/C=C\C/C=C\C/C=C\C/C=C\C/C=C\CCC(=O)Nc1ccn(C2OC(CO)C(O)C2(F)F)c(=O)n1` (stereo not shown), the CC50 was 51.9 µM (KM12; NCI60 screen).
With `COc1cc(CNC(=O)C[C@H](C)CCC=C(C)C)ccc1OCc1cn(-c2ccc(Cl)cc2Cl)nn1` the growth was 95.5% (HL-60(TB); SRB; 10 µM, 48 h).
For `CC[N+](C)(CC)Cc1cc(Nc2ccnc3cc(Cl)ccc23)ccc1O`, the EC50 was 30.2 ± 6.05 µM (West Nile virus; viral replication, Rluc reporter replicon; Vero WNV replicon cells; 24 h).
`COc1cc(N2CCN(C)CC2)ccc1Nc1ncc2c(n1)N(C1CCC1)C(=O)N(c1c(C)cccc1C)C2` — result for “cyclobutane pyrimidine dimer reduction”: 65.2% (healthy women skin type II, skin; dose not given).
The remaining activity of `CCCC/C=C/C(=O)N[C@@H](Cc1cc(F)cc(F)c1)C(=O)N[C@@H](COC(=O)[C@@H]1CCCN1C(C)=O)C(=O)OC` is reported as about 55% (Mycobacterium tuberculosis ClpX; ATPase activity; 200 µM, DMSO 80%, together with: ClpP1P2; relative to: basal activity).
For `C[n+]1ccc(Nc2ccc(O)cc2)c2ccc(Cl)cc21`, the EC50 was 33.4 ± 3.09 µM (West Nile virus; viral replication, Rluc reporter replicon; Vero WNV replicon cells; 24 h).
`CN[C@](C)(C[18F])C(=O)O` gave a tracer uptake of 14 %ID/g (MDA-MB-468 tumour model; host not given, kidney; 30 min, tumour-bearing).
With `COC[C@@H](NC(C)=O)C(=O)NCc1ccc(N=[N+]=[N-])cc1` the inhibition was about 40% (CAD; sodium current; 100 µM, holding potential -80 mV; relative to: DMSO).
For `CN(C)CC1CCCCC1(O)c1cccc(O)c1` (stereo not shown), “Papp A to B” read 12.8 ± 0.9 ×10⁻⁶ cm/s (P-glycoprotein; Caco-2 TC7; 10 µM, 3 h, pH 7.4, together with: cyclosporin A 10 µM).
For `COc1cc(CNC(=O)C[C@H](C)CCC=C(C)C)ccc1OCc1cn(-c2ccc([N+](=O)[O-])cc2)nn1`, the growth was 110% (HL-60(TB); SRB; 10 µM, 48 h).
The GI50 of `C=CCc1cc2c(c(OC)c1OC)OCO2` is reported as over 250 µM (T47D; cell growth or viability; 72 h).
With `CC(C)[C@]12O[C@H]1[C@@H]1O[C@]13[C@]1(O[C@H]1C[C@H]1c4c(C(=O)c5ccccc5)oc(OC(=O)c5ccccc5)c4CC[C@@]13C)[C@@H]2O` the IC50 was 0.0152 µM (MV4-11; cell viability, Alamar Blue; 48 h).
`CCN(CC)Cc1cc(Nc2c(C)cnc3cc(Cl)ccc23)ccc1O` gave an EC50 of 21.1 ± 1.22 µM (Dengue virus type 2; viral replication, Rluc reporter replicon; BHK-21 DENV2 replicon cells; 24 h).
Under mRNA level, `CC(C)C[C@H](NC(=O)CNC(=O)[C@H](CO)NC(=O)[C@@H](NC(=O)[C@H](CC(C)C)NC(=O)[C@H](CCCCN)NC(=O)[C@H](CS)NC(=O)[C@H](CCCNC(=N)N)NC(=O)[C@H](CS)NC(=O)[C@@H](NC(=O)[C@H](CC(N)=O)NC(=O)[C@H](C)NC(=O)[C@H](CS)NC(=O)[C@H](CC(C)C)NC(=O)[C@H](CCCCN)NC(=O)[C@H](CCC(N)=O)NC(=O)[C@H](C)NC(=O)CNC(=O)[C@H](CCCNC(=N)N)NC(=O)[C@H](C)NC(=O)[C@H](CCCNC(=N)N)NC(=O)[C@H](CS)NC(=O)[C@H](CC(C)C)NC(=O)[C@H](CC(N)=O)NC(=O)[C@H](Cc1ccc(O)cc1)NC(=O)[C@H](CS)NC(=O)[C@H](CC(N)=O)NC(=O)[C@H](CCCNC(=N)N)NC(=O)CNC(=O)[C@H](CC(C)C)NC(=O)[C@@H](NC(=O)[C@H](CO)NC(=O)[C@H](CCCCN)NC(=O)[C@H](CS)NC(=O)[C@H](CS)NC(=O)[C@H](CO)NC(=O)[C@@H](N)CCCCN)[C@@H](C)O)C(C)C)[C@@H](C)O)C(=O)N[C@@H](CO)C(=O)N[C@@H](CS)C(=O)N1CCC[C@H]1C(=O)N[C@@H](CCCCN)C(=O)N[C@@H](CC(=O)O)C(=O)N[C@@H](Cc1ccccc1)C(=O)N1CCC[C@H]1C(=O)N[C@@H](CCCCN)C(=O)O` is recorded as “increased” (refers to: TaPR1; Triticum aestivum cv. Fielder; dose not given, combined sgB and sgD; relative to: control).
`CCN(CC)Cc1cc(Nc2c(C3CCCC3)c(C)nc3cc(Cl)ccc23)ccc1O` has an EC50 of 15.4 ± 1.31 µM (Dengue virus type 2; viral replication, Rluc reporter replicon; BHK-21 DENV2 replicon cells; 24 h).
`COc1cc(CNC(=O)C[C@H](C)CCC=C(C)C)ccc1OCc1cn(-c2ccc(Cl)c(Cl)c2)nn1` has a growth of 84% (HL-60(TB); SRB; 10 µM, 48 h).
For `CN[C@@H]1[C@H](O)[C@H](NC)[C@H]2O[C@]3(O)[C@H](O[C@@H]2[C@H]1O)O[C@H](C)C[C@@]3(O)CNCCc1ccc(F)cc1`, the MIC was 4 µg/mL (≈ 8.24 µM) (Mycobacteroides abscessus; microbial growth; ATCC19977; 5 days).
For `CCCNC(=O)[C@H](CC(C)C)NC(=O)[C@H](Cc1c[nH]cn1)NC(=O)CNC(=O)[C@@H](NC(=O)[C@H](C)NC(=O)[C@H](Cc1c[nH]c2ccccc12)NC(=O)[C@H](CCC(N)=O)NC(=O)[C@@H](Cc1ccccc1)NC(=O)CCCCCNC(=O)CN1CCN(CC(=O)O)CCN(CC(=O)O)CCN(CC(=O)O)CC1)C(C)C` [indium-111 labelled], the tissue uptake was 0.09 ± 0.03 %ID/g (Gastrin-releasing peptide receptor (Mus musculus, UniProt P21729); biodistribution; CF-1 mice, bone; intravenous, 1 h, together with: bombesin 100 µg, blocking).
`CCCC[C@H](NC(=O)CNC(=O)CNC(=O)c1ccc(NN)nc1)C(=O)N[C@H]1CC(=O)NCCCC[C@@H](C(N)=O)NC(=O)[C@H](Cc2c[nH]c3ccccc23)NC(=O)[C@H](CCCNC(=N)N)NC(=O)[C@@H](Cc2ccccc2)NC(=O)[C@H](Cc2c[nH]cn2)NC1=O` [technetium-99m labelled] has a tissue uptake of 4.54 ± 0.7 %ID/g (C57 mouse, B16/F1 melanoma-bearing, tumor; intravenous, 24 h).
`Nc1ccc(/C=C/C(=O)N2CCc3c(oc4c(-c5ccc(F)cc5)cc(-c5ccc(C(=O)N6CCC(F)(F)CC6)cn5)cc34)C2)cn1` — result for β-catenin level: “decreased” (immunohistochemistry; mice, MIA PaCa-2 xenograft, tumour; 100 mg/kg).
`N=C(N)NCCC[C@@H]1NC(=O)[C@H](CCCCNC(=O)CCOCCOCCOCCOCCNC(=O)CC[C@H](NC(=O)CCOCCOCCOCCOCCNC(=O)CC[C@H](NC(=O)CN2CCN(CC(=O)O)CCN(CC(=O)O)CCN(CC(=O)O)CC2)C(=O)NCCOCCOCCOCCOCCC(=O)N[C@@H](CCC(=O)NCCOCCOCCOCCOCCC(=O)NCCCC[C@@H]2NC(=O)[C@@H](Cc3ccccc3)NC(=O)[C@H](CC(=O)O)NC(=O)CNC(=O)[C@H](CCCNC(=N)N)NC2=O)C(=O)NCCOCCOCCOCCOCCC(=O)NCCCC[C@@H]2NC(=O)[C@@H](Cc3ccccc3)NC(=O)[C@H](CC(=O)O)NC(=O)CNC(=O)[C@H](CCCNC(=N)N)NC2=O)C(=O)NCCOCCOCCOCCOCCC(=O)NCCCC[C@@H]2NC(=O)[C@@H](Cc3ccccc3)NC(=O)[C@H](CC(=O)O)NC(=O)CNC(=O)[C@H](CCCNC(=N)N)NC2=O)NC(=O)[C@@H](Cc2ccccc2)NC(=O)[C@H](CC(=O)O)NC(=O)CNC1=O` [indium-111 labelled] gave a tissue uptake of 1.23 ± 0.27 %ID/g (female athymic nude mice, liver; intravenous, 3 µCi, 72 h, U-87 MG glioma xenograft).
The tracer uptake of `COc1cc(C(=O)NCCOCCOCCOCCNC(=O)c2ccc([18F])nc2)ccc1NC(=O)C1NC(CC(C)(C)C)C(C#N)(c2ccc(Cl)cc2F)C1c1cccc(Cl)c1F` (stereo not shown) is reported as 0.39 %ID/g (HepG2 tumour model; host not given, brain; 2 h, tumour-bearing).
For `COc1ccc(-n2cc(C(=O)N3C[C@]4(OC(=O)c5ccccc5NC(C)=O)CC[C@H](OC)[C@@]56[C@@H]4C[C@@H]([C@@H]35)[C@@]3(O)C[C@H](OC)[C@H]4C[C@@H]6[C@]3(O)[C@H]4OC)nn2)cc1`, “COX-2 protein level” read “decreased” (RAW264.7; western blot; 30, 60 or 120 µM, 24 h, together with: LPS 1 µg/mL).
With `CN[C@@H]1[C@H](O)[C@H](NC)[C@H]2O[C@]3(O)[C@H](O[C@@H]2[C@H]1O)O[C@H](C)C[C@@]3(O)CNCCC1CCOCC1` the MIC was 16 µg/mL (≈ 33.6 µM) (Mycobacteroides abscessus; microbial growth; ATCC19977; 5 days).
With `CC(C)CC(O)(CC(C)C)c1cn(C(=O)N2CCCC2)nn1` the SILAC ratio was 2.61 ± 0.63 (mouse T-cells; N-terminal labeled proteins, N-terminal enrichment proteomics, refers to: PAIP2B; 1 nM, 6 h; relative to: DMSO).

Excerpt of the above:
`CN[C@](C)(C[18F])C(=O)O` gave a tracer uptake of 14 %ID/g (MDA-MB-468 tumour model; host not given, kidney; 30 min, tumour-bearing).
With `COC[C@@H](NC(C)=O)C(=O)NCc1ccc(N=[N+]=[N-])cc1` the inhibition was about 40% (CAD; sodium current; 100 µM, holding potential -80 mV; relative to: DMSO).
For `CN(C)CC1CCCCC1(O)c1cccc(O)c1` (stereo not shown), “Papp A to B” read 12.8 ± 0.9 ×10⁻⁶ cm/s (P-glycoprotein; Caco-2 TC7; 10 µM, 3 h, pH 7.4, together with: cyclosporin A 10 µM).
